Experimental data from different studies.
Every numbered part comes from another study and shows a few of its results, in no order.

Study 1 — method: protein-binding microarray; molecule type: double-stranded DNA, one strand shown; sample: in vitro; concentration: 0.8 µM; notes: whole 60-bp probe, no competitor; reading: higher = stronger binding; constant ends, left off below: … GTCTTGATTCGCTTGACGCTGCTG
Target: Centromere-binding protein 1, full length, N-terminal tag (CBF1, Saccharomyces cerevisiae, UniProt P17106, residues 1-351)
Chain of UniProt P17106 (whole entry, looked up): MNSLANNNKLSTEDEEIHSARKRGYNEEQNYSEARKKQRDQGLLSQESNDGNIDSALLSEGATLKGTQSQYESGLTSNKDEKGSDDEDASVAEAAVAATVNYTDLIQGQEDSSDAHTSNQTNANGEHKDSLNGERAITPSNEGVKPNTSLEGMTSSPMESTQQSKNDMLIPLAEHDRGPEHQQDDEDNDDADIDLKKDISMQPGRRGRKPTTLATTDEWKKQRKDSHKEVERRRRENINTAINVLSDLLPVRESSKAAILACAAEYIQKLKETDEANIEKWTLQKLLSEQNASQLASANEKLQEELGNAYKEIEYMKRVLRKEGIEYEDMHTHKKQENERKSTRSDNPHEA
With `TGTACGAAGCTATGCCACGGGGCTATAGTAGTTAGG` the fluorescence intensity was 591 a.u.
With `GAAAAAATAAGGCGTCAGGTGACCAGGCACCTCTAG` the fluorescence intensity was 11800 a.u.
With `CTAAGGAACAAACAAAACGCACGAAAATAGCTATTC` the fluorescence intensity was 521 a.u.
For `GAACTGTTGCAAGCTCACGTGAAAATGTGGATTTAG`, the fluorescence intensity was 3310 a.u.
For `CTAAAAGGCCTTCACATGGTGATCCATCTTCTATTC`, the fluorescence intensity was 563 a.u.
The fluorescence intensity of `GAAAAAACATTATTTCATGACACTGTTCCTAGATAG` is reported as 533 a.u.

Study 2 — method: Spec-seq; molecule type: double-stranded DNA, one strand shown; sample: in vitro; concentration: not given; notes: whole probe, mean of replicates; relative to: not given; reading: lower = stronger binding
Target: POU, POU domain (Salpingoeca helianthica)
Residues (chain): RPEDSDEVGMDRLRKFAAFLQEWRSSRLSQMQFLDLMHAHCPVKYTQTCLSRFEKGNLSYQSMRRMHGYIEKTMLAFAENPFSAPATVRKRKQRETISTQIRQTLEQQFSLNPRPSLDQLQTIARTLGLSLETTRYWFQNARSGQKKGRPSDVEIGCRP
For `GAGTCGTCTCGTCAGCACCGCTTAATCCGTAGAGCACTCAGGTC`, “relative binding energy” read 0.442 ln ratio.
`GAGTCGTCTCGTCAGCACATGCACGTCCGTAGAGCACTCAGGTC` — result for “relative binding energy”: 1.25 ln ratio.
For `GAGTCGTCTCGTCAGCACATGCTAGCCCGTAGAGCACTCAGGTC`, “relative binding energy” read 1.33 ln ratio.

Study 3 — method: protein binding microarray; molecule type: double-stranded DNA, one strand shown; sample: in vitro; concentration: not given; relative to: not given; reading: higher = stronger binding
Target: Histone acetyltransferase KAT6A, winged helix 1, GST fusion (KAT6A, Homo sapiens, UniProt Q92794, residues 1-85)
Notes: 8-mer, flanks averaged, mean of 2 arrays, mostly near background
Construct (chain): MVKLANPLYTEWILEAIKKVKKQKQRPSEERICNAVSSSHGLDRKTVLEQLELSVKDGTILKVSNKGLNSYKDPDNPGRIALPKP
With `CTAATCAC` the E-score was -0.133.
For `ACACCGAC`, the E-score was 0.242.
`CAGCAGGA` gave an E-score of -0.345.
With `GACAAAAA` the E-score was -0.156.

Further values, each from its own experiment
With `PhoQ, residues 284 288 289 292 302 303 NLALSC` the fold induction was 9.11 (PhoP, residues 12 14 15 18 19 STWGI (Escherichia coli, UniProt P23836); Sort-seq, measured: YFP reporter; E. coli; PhoQ-PhoP variant library, with: 10 µM Mg2+; relative to: high Mg2+ state, higher = stronger signaling).

Repeated from above (study 1):
With `TGTACGAAGCTATGCCACGGGGCTATAGTAGTTAGG` the fluorescence intensity was 591 a.u.
With `GAAAAAATAAGGCGTCAGGTGACCAGGCACCTCTAG` the fluorescence intensity was 11800 a.u.
